Results gathered from unrelated publications.
Protocols differ between the studies behind these lines. Values joined by “and” are separate records of one study, mostly repeats; a detail may differ. Numbers after ± are the reported error.
SMARCA2: SWI/SNF-related matrix-associated actin-dependent regulator of chromatin subfamily A member 2 (SMARCA2, Homo sapiens, UniProt P51531)
Neuromedin-U receptor 2: Neuromedin-U receptor 2 (Mus musculus, UniProt Q8BZ39)
Sequence of UniProt Q8BZ39 (whole entry, looked up): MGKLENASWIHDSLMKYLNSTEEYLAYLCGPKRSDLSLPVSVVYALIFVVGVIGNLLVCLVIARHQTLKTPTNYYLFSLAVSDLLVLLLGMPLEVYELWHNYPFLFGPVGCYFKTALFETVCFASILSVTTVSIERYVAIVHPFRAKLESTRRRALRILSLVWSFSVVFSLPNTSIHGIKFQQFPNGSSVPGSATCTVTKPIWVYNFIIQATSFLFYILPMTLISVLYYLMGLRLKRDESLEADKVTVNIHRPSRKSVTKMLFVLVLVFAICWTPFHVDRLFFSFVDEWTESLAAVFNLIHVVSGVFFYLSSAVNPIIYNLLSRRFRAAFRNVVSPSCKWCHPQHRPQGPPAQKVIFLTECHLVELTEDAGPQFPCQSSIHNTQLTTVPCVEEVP
USP13 ZnF-UBD domain: Ubiquitin carboxyl-terminal hydrolase 13, ZnF-UBD domain (USP13, Homo sapiens, UniProt Q92995)
Sequence of UniProt Q92995 (whole entry, looked up): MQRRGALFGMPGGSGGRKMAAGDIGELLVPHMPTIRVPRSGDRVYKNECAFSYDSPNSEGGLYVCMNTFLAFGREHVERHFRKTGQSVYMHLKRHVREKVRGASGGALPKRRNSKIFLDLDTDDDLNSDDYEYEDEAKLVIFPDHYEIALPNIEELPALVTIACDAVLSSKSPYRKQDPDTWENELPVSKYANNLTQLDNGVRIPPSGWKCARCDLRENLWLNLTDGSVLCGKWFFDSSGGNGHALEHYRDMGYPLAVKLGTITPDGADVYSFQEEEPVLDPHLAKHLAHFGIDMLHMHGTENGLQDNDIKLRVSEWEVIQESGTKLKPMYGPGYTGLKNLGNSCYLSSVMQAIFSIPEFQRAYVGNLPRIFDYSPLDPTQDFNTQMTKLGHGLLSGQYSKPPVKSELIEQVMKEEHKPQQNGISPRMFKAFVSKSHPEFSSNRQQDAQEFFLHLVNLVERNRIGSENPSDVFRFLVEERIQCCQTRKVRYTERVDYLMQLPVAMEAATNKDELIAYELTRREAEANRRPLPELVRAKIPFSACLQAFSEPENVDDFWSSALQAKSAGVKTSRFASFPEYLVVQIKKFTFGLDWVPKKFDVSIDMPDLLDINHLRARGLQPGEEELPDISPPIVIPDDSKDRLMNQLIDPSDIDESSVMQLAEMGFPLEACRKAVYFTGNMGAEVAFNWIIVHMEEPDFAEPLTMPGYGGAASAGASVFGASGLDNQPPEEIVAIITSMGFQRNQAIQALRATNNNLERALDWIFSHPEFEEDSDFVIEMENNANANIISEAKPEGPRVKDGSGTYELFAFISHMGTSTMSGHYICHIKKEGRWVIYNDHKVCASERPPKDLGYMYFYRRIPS
HDAC6: Protein deacetylase HDAC6 (HDAC6, Homo sapiens, UniProt Q9UBN7)
Sequence of UniProt Q9UBN7 (whole entry, looked up): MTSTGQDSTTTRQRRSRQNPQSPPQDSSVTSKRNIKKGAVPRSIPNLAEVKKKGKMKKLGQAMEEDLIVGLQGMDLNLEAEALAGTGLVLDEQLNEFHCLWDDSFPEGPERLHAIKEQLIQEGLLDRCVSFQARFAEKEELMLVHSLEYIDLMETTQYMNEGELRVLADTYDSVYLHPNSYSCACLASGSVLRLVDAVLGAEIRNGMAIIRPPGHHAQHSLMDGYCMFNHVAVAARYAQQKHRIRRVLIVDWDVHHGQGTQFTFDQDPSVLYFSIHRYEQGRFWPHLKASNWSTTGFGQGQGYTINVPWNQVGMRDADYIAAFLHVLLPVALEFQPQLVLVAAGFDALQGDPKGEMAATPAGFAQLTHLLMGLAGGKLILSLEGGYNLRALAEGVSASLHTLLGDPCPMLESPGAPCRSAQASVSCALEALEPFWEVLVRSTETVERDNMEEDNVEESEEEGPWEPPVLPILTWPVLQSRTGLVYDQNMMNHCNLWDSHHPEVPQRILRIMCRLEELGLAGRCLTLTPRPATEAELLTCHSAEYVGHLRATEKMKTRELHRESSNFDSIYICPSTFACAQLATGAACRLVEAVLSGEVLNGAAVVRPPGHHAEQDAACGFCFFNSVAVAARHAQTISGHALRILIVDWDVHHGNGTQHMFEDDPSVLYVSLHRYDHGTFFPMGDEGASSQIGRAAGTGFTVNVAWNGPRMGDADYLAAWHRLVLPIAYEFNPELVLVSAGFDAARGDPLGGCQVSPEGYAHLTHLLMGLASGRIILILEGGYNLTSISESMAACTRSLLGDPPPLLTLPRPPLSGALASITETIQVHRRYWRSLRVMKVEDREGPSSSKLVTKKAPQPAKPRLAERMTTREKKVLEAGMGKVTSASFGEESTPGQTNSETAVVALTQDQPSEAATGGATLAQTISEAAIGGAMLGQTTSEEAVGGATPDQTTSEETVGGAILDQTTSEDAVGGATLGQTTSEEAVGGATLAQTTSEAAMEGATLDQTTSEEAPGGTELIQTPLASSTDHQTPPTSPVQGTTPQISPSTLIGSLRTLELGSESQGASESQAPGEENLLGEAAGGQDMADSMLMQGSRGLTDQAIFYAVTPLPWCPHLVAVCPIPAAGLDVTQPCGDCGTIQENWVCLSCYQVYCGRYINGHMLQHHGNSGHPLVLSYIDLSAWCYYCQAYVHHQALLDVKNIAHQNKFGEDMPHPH
HDAC6 ZnF-UBD domain: Protein deacetylase HDAC6, ZnF-UBD domain (HDAC6, Homo sapiens, UniProt Q9UBN7)
Sequence of UniProt Q00961 (whole entry, unmodified, looked up): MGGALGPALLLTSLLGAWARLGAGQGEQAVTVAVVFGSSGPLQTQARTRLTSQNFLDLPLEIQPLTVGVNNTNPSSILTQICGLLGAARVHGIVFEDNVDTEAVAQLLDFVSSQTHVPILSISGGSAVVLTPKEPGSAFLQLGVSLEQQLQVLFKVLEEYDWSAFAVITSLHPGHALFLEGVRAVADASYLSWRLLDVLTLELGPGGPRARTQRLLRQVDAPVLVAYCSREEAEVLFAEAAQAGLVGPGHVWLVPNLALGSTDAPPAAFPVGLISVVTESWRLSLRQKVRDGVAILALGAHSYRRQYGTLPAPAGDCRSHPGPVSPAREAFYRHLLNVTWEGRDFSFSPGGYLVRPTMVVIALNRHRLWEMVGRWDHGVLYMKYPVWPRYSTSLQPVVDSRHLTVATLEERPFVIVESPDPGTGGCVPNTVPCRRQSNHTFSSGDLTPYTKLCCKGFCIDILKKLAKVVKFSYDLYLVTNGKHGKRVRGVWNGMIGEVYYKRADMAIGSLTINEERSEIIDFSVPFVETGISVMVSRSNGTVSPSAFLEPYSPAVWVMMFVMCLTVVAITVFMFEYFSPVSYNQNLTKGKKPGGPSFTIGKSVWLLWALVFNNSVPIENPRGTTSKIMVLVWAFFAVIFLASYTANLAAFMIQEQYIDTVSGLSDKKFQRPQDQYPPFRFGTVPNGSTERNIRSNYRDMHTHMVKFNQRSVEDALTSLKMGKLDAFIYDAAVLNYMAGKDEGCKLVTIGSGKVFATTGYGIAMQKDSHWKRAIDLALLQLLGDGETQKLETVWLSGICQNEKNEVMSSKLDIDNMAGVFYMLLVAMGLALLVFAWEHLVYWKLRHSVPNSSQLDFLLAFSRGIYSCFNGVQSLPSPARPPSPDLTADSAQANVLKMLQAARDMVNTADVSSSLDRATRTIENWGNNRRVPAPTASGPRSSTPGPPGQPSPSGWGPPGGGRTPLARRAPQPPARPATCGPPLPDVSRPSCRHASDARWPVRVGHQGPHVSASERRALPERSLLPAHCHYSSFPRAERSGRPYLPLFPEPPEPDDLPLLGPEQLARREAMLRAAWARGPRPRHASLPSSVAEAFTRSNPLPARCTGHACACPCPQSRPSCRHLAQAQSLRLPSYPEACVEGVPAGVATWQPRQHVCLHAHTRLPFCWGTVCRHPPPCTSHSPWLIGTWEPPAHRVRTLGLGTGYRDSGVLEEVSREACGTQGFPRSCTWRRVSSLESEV
Sequence of UniProt P34995 (whole entry, unmodified, looked up): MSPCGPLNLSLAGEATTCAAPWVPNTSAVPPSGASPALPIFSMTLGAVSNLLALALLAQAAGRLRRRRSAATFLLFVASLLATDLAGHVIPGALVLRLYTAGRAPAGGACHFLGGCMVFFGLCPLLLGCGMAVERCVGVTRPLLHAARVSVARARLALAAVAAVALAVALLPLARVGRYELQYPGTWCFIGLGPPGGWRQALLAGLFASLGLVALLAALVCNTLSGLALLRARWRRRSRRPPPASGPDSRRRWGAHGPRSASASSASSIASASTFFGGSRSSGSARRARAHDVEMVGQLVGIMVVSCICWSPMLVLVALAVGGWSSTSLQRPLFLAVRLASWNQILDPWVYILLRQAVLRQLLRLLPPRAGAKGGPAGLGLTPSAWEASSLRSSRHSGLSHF
Sequence of UniProt P00698 (whole entry, looked up): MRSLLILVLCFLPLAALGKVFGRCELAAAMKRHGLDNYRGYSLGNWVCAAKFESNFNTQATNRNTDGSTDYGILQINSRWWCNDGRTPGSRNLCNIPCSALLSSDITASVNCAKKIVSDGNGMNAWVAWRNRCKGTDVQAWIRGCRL
Sequence of UniProt O14965 (whole entry, looked up): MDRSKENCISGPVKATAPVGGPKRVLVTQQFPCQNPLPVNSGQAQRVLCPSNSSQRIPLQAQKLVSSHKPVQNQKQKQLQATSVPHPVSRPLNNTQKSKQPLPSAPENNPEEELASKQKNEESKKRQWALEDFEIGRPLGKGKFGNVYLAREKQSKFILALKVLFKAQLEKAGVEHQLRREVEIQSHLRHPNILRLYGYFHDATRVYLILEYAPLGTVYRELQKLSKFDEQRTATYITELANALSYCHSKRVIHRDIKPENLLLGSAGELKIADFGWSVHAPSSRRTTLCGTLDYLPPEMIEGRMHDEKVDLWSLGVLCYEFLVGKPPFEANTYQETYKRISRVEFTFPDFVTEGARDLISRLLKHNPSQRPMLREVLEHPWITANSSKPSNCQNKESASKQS

c1coc(-c2n[nH]cc2-c2ccnc3ccccc23)c1  log2 fold change (RIO2 (Candida albicans); kinase binding, MIB/MS competition; Candida albicans lysate; 1 µM; relative to: DMSO): -0.22
CC(C)[C@H](NC(=O)[C@@H](NC(=O)CCCc1cn(CC(O)CN2CCN(CC(=O)O)CCN(CC(=O)O)CCN(CC(=O)O)CC2)nn1)[C@@H](C)O)C(=O)N[C@@H](CCCNC(=N)N)C(=O)N[C@H](C(=O)N[C@@H](CO)C(=O)N[C@@H](C)C(=O)N[C@@H](CC(=O)O)C(=O)O)[C@@H](C)O (stereo partly drawn)  tmax (healthy male humans, plasma; intravenous bolus, 0.08 mmol/kg): 8.4 ± 7.8 min
CC(C)C[C@H](NC(=O)C[C@H](O)[C@H](CC(C)C)NC(=O)[C@H](Cc1c[nH]cn1)NC(=O)CNC(=O)[C@@H](NC(=O)[C@H](C)NC(=O)[C@H](Cc1c[nH]c2ccccc12)NC(=O)[C@H](CCC(N)=O)NC(=O)[C@@H](Cc1ccccc1)NC(=O)COCCOCCNC(=O)CN1CCN(CC(=O)O)CCN(CC(=O)O)CCN(CC(=O)O)CC1)C(C)C)C(N)=O [lutetium-177 labelled]  tissue uptake (female BALB/c nu/nu mice, bone; intravenous, 50 pmol, 1 h): 0.12 ± 0.01 %ID/g
CC(=O)N[C@H]1[C@H](O[C@H]2[C@H](O)[C@@H](NC(C)=O)[C@H](O[C@H]3[C@H](O)[C@@H](NC(C)=O)[C@H](O[C@H]4[C@H](O)[C@@H](NC(C)=O)C(O)O[C@@H]4CO)O[C@@H]3CO)O[C@@H]2CO)O[C@H](CO)[C@@H](O[C@@H]2O[C@H](CO)[C@@H](O[C@@H]3O[C@H](CO)[C@@H](O[C@@H]4O[C@H](CO)[C@@H](O[C@@H]5O[C@H](CO)[C@@H](O)[C@H](O)[C@H]5NC(C)=O)[C@H](O)[C@H]4NC(C)=O)[C@H](O)[C@H]3NC(C)=O)[C@H](O)[C@H]2NC(C)=O)[C@@H]1O (stereo partly drawn)  Ki (LCO binding, radioligand competition binding; membrane fractions; together with: radiolabelled LCO-V(C18:1,NMe)): 0.0058 µM and 0.017 µM
NC(=O)c1cnc2[nH]ccc2c1N[C@@H]1[C@@H]2CC3C[C@H]1C[C@@](O)(C3)C2  total memory T-cell change (flow cytometry; Caucasian healthy men, blood; oral, 20 mg single dose, 24 h; relative to: baseline): -1.03%
CC(C)C[C@H](NC(=O)C[C@H](O)[C@H](CC(C)C)NC(=O)[C@H](Cc1c[nH]cn1)NC(=O)CNC(=O)[C@@H](NC(=O)[C@H](C)NC(=O)[C@H](Cc1c[nH]c2ccccc12)NC(=O)[C@H](CCC(N)=O)NC(=O)[C@@H](Cc1ccccc1)NC(=O)COCCOCCNC(=O)CCC(C(=O)O)N1CCN(CC(=O)O)CCN(CC(=O)O)CCN(CC(=O)O)CC1)C(C)C)C(N)=O (stereo partly drawn) [lutetium-177 labelled]  tissue uptake (female BALB/c nu/nu mice, kidneys; intravenous, 100 pmol, 2 h, together with: PA 300 µg): 3.5 ± 1 %ID/g
CC(=O)N[C@H]1[C@H](O[C@H]2[C@H](O)[C@@H](NC(C)=O)C(O)O[C@@H]2CO)O[C@H](CO)[C@@H](O[C@@H]2O[C@H](CO)[C@@H](O)[C@H](O)[C@H]2NC(C)=O)[C@@H]1O (stereo partly drawn)  Kd (Lysozyme C (LYZ, Gallus gallus, UniProt P00698); surface sampling native MS; charge state 7+): 16.4 ± 2.1 µM
CC[C@@H]1[C@H](F)C(=O)N[C@@H]1COc1nccc2cc(C(N)=O)c(OC)cc12  IC50 (Serine/threonine-protein kinase tousled-like 1 (TLK1, Homo sapiens, UniProt Q9UKI8); ATP-site probe binding, ActivX profiling; THP-1 cell lysate; Lys2 site): 1.8 µM
N[C@H](CNC(=O)c1ccc(-c2ccccc2Br)s1)C(=O)O  EC50 (Glutamate NMDA receptor; Grin1/Grin2c (Rattus norvegicus, UniProt P35439+Q00961, V689I); receptor activation, positive modulator; rat; together with: glutamate 300 µM): 0.013 µM
OC(CCN1CCCCC1)(c1ccccc1)C1CC2C=CC1C2 (stereo not drawn)  change in EEG Alpha2-power Pz-O2 (resting-state EEG; healthy elderly humans; oral, 2 mg, eyes closed, LS mean; relative to: baseline): 20.1%
Nc1nnc(-c2ccccc2O)cc1N1CCN(Cc2ccc(N3CCN(CCOc4cccc5c4C(=O)N(C4CCC(=O)NC4=O)C5=O)CC3)c(F)c2)CC1 (stereo not drawn)  DC50 (SMARCA2; degrader, immunoblot; H1792 SMARCA4 wild-type; 96 h): 0.12 µM
Nc1nnc(-c2ccccc2O)cc1N1CCN(Cc2ccc(OCCOCCNc3cccc4c3C(=O)N(C3CCC(=O)NC3=O)C4=O)c(F)c2)CC1 (stereo not drawn)  DC50 (SMARCA2; degrader, immunoblot; SMARCA4-mutant lung cancer cells; 96 h, median of twelve cell lines): 0.0302 µM
Nc1nnc(-c2ccccc2O)cc1N1CC2CCC(C1)N2c1ccnc(F)c1  DC50 (SMARCA2; degrader, immunofluorescence; SW1573): > 1 µM
Cc1ccc(Nc2cc(O)nc(O)n2)cc1Cl  Ki (DNA polymerase III PolC-type (Bacillus subtilis, UniProt P13267); inhibitor): 0.64 µM
CC(C)C[C@H](NC(=O)[C@H](Cc1ccccc1)NC(=O)[C@@H](N)Cc1ccc(O)cc1)C(=O)N[C@@H](Cc1ccccc1)C(=O)N[C@@H](CCCNC(=N)N)C(=O)N1CCC[C@H]1C(=O)N[C@@H](CCCNC(=N)N)C(=O)N[C@@H](CC(N)=O)C(N)=O  EC50 (Neuromedin-U receptor 2; β-arrestin recruitment, agonist): 0.0083 µM
Oc1ccccc1-c1n[nH]cc1-c1ccnc2ccccc12  log2 fold change (SAK1 (Candida albicans); kinase binding, MIB/MS competition; Candida albicans lysate; 10 µM; relative to: DMSO): -0.11
O=C(O)Cn1cnc2c(oc3ccccc32)c1=O  Kd (USP13 ZnF-UBD domain): > 1000 µM
N[C@H](CNC(=O)c1cc(Br)c(-c2ccccc2F)s1)C(=O)O  EC50 (Glutamate NMDA receptor; Grin1/Grin2c (Rattus norvegicus, UniProt P35439+Q00961, F754L); receptor activation, positive modulator; rat; together with: glutamate 300 µM): 0.02 µM
Cc1ncsc1-c1ccc(CNC(=O)[C@@H]2C[C@@H](O)CN2C(=O)[C@@H](NC(=O)C2(F)CC2)C(C)(C)C)c(OCCOc2ccc(CN3CCN(c4cc(-c5ccccc5O)nnc4N)CC3)cc2)c1  DC50 (SMARCA2; degrader, capillary electrophoresis; MV4-11; 18 h): 0.031 µM
CC(C)C[C@H](NC(=O)[C@H](Cc1ccccc1)NC(=O)[C@H](Cc1ccc(O)cc1)NC(=O)CNC(=O)[C@H](CCCNC(=N)N)NC(=O)[C@H](CO)NC(=O)[C@H](CCC(N)=O)NC(=O)[C@H](CO)NC(=O)[C@H](C)NC(=O)[C@H](Cc1ccccc1)NC(=O)[C@@H]1CCCN1C(=O)[C@H](CO)NC(=O)[C@H](CCC(N)=O)NC(=O)[C@H](Cc1ccccc1)NC(=O)[C@H](CCC(=O)O)NC(=O)[C@H](CCC(=O)O)NC(=O)[C@H](CC(=O)O)NC(=O)[C@@H](NC(=O)[C@H](CCCNC(=N)N)NC(=O)[C@@H](N)Cc1ccccc1)C(C)C)C(=O)N[C@@H](Cc1ccccc1)C(=O)N[C@@H](CCCNC(=N)N)C(=O)N1CCC[C@H]1C(=O)N[C@@H](CCCNC(=N)N)C(=O)N[C@@H](CC(N)=O)C(N)=O  EC50 (Neuromedin-U receptor 2; Gq signalling, agonist, IP-1 accumulation; from mean pEC50): 0.000575 µM
Cn1cc(-c2ccc(-c3cncc(Cl)c3N3CCC4(CCNC4=O)CC3)cc2)cn1  log2 fold change (COLO 205; gene expression, microarray, item: LAMB3 mRNA; concentration not given, 2 h; relative to: untreated cells): 3.78
CN(CCCCCCNC(=O)CNc1cccc2c1C(=O)N(C1CCC(=O)NC1=O)C2=O)Cc1cn(Cc2ccc(C(=O)NO)cc2)c2ccccc12 (stereo not drawn)  DC50 (HDAC6; degrader, western blot; MM1.S cells; 24 h): 0.016 ± 0.0039 µM
O=C(O)CSc1nnc(NC(=O)COc2ccccc2)s1  Kd (HDAC6 ZnF-UBD domain): 273 µM
O=C(COc1ccc(C2CCC(=O)NC2=O)cc1)NCCCCCCN1CCc2c(c3ccccc3n2Cc2ccc(C(=O)NO)cc2)C1 (stereo not drawn)  DC50 (HDAC6; degrader, western blot; MM1.S cells; 24 h): 0.0013 ± 0.0005 µM
O=C(O)CCc1ccc2c(c1)OCO2  Kd (HDAC6 ZnF-UBD domain): > 1000 µM
O=c1nc(N2CCN(CC3CCCCC3)CC2)sc2c([N+](=O)[O-])cc(C(F)(F)F)cc12  IC50 (Cytochrome P450 3A4 (CYP3A4, Homo sapiens, UniProt P08684); 60 (unit not given), pH 7.4): > 10 µM
O=C(O)CCc1ccccc1  Kd (HDAC6 ZnF-UBD domain): > 1000 µM
CC(C)[C@H](NC(=O)[C@H](Cc1ccc(O)cc1)NC(=O)[C@H](Cc1ccc(O)cc1)NC(=O)[C@@H]1CCCN1C(=O)[C@H](CCC(=O)O)NC(=O)[C@H](CCC(=O)O)NC(=O)[C@H](Cc1c[nH]c2ccccc12)NC(=O)[C@@H]1CCCN1C(=O)[C@@H](NC(=O)[C@H](CCC(N)=O)NC(=O)c1ccc2c(c1)C(=O)OC21c2ccc(O)cc2Oc2cc(O)ccc21)C(C)C)C(=O)N[C@H](C(=O)N[C@@H](CCCCN)C(=O)N[C@@H](CCCCN)C(=O)N[C@@H](CO)C(=O)N[C@@H](CO)C(=O)NCC(=O)NCC(N)=O)C(C)C  plasma concentration (human, plasma; intravenous infusion, 200 mg, 0.5 h): 8760 ng/mL
O=C(O)CCn1ccccc1=O  Kd (USP13 ZnF-UBD domain): > 1000 µM
Cc1nc(N)nc2c1C(=O)N[C@@H](c1ccc(F)cc1-c1cccc(OCCF)n1)C2  Ki (binding, radioligand competition; mouse brain homogenate; together with: [3H]HSP990 0.6 nM): 0.21 µM
O=C(O)CCn1cccn1  Kd (HDAC6 ZnF-UBD domain): > 1000 µM
O=C(COP(=O)(O)O)[C@@H](O)[C@H](O)[C@H](O)COP(=O)(O)O  thermal stability ratio (Small ribosomal subunit protein mS35 (Homo sapiens, UniProt P82673); thermal proteome profiling, item: MRPS35; HepG2 cell lysate; concentration not given, 57 over 37 °C, mean; relative to: compound over control): 0.493
O=C(O)CNc1ncccn1  Kd (HDAC6 ZnF-UBD domain): > 1000 µM
O=C(COc1cccc2c1C(=O)N(C1CCC(=O)NC1=O)C2=O)NCCCCCC(=O)N1CCN(c2ccc(Nc3nc(NC4CCCCC4)c4[nH]cnc4n3)cc2)CC1 (stereo not drawn)  DC50 (Aurora kinase A (AURKA, Homo sapiens, UniProt O14965); degrader, western blot; IMR-32): 0.0088 µM
Nc1nc(CC(=O)O)cs1  Kd (USP13 ZnF-UBD domain): > 1000 µM
CCCCC[C@H](O)/C=C/[C@H]1[C@H](O)CC(=O)[C@@H]1C/C=C\CCCC(=O)O  EC50 (Prostaglandin E2 receptor EP1 subtype (PTGER1, Homo sapiens, UniProt P34995, R63A); IP1 accumulation, agonist; AD293; EP1 R63A mutant): 0.00272 µM

A few entries again:
O=C(O)CCc1ccc2c(c1)OCO2  Kd (HDAC6 ZnF-UBD domain): > 1000 µM
O=c1nc(N2CCN(CC3CCCCC3)CC2)sc2c([N+](=O)[O-])cc(C(F)(F)F)cc12  IC50 (Cytochrome P450 3A4 (CYP3A4, Homo sapiens, UniProt P08684); 60 (unit not given), pH 7.4): > 10 µM
O=C(O)CCc1ccccc1  Kd (HDAC6 ZnF-UBD domain): > 1000 µM
